# Published values of several laboratories.
# Lines come from different studies, so protocols differ. ± marks the error that the study gave.
Structure (SMILES),tested on,assay,system,setting,how to read,endpoint,result
CNS(=O)(=O)Nc1nccc(Cc2c(C)c3ccc(Oc4ncccc4F)cc3oc2=O)c1F,TOV21G,cell viability,,7 days,,IC50,> 1000 nM
C[n+]1cc(NC(=O)c2ccc3ccc4ccc(C(=O)Nc5cc6ccccc6[n+](C)c5)nc4c3n2)cc2ccccc21,human telomeric G-quadruplex DNA,UV melting,,"6 µM, 100 mM potassium, added: DNA 3 µM",,delta Tm,6.9 °C
COC1CN([C@H]2CC[C@H]([C@@]3(C)Oc4c(Cl)cc(C(=O)NCc5c(SC)cc(C)[nH]c5=O)c(C)c4O3)CC2)C1,,"RNA-seq, measured: PRDM16","human, whole blood","dose not given, 24 h",relative to: pretreatment baseline,log2 fold change,2.7
CC(C)c1ccc(N(C)c2ccc3c(c2)OCC[C@H]3CNc2cnccc2C(=O)O)cc1,G-401,"cell growth or viability, ATP luminescence",,7 days,,IC50,4.45 nM
Cc1ncsc1-c1ccc(C(C)NC(=O)C2CC(O)CN2C(=O)C(NC(=O)CCCCCCCCCCN2CCCC(Nc3ncc(Cl)c(Nc4ccccc4S(=O)(=O)C(C)C)n3)C2)C(C)(C)C)cc1 (centres unmarked),22Rv1,"RNA-seq, measured: MAPK6-DT",,concentration not given,relative to: DMSO,log2 fold change,-5.5
CCN(CC)CC(=O)Nc1cccc(-n2cc(-c3ccc4ccc(-c5cn(-c6cccc(NC(=O)CN(CC)CC)c6)nn5)cc4c3)nn2)c1,RCC4,"PCR angiogenesis array, measured: CXCL10",,"5 x IC50, 4 h, normoxia",relative to: untreated,fold regulation,-1.1
CN1CCCNC(=O)c2cccc(c2)C(=O)NCCCN(C)CCCNc2cccc3c2C(=O)c2cccc(c2C3=O)NCCC1,SAS,"RNA-Seq, measured: MDC1 mRNA",,"1 µM, 6 h",relative to: untreated cells,log2 fold change,1.15
C=CC(=O)N1[C@@H](c2ccc3c(c2)OCO3)c2[nH]c3ccccc3c2C[C@H]1C(=O)N1CCN(C)CC1,human cyclin E1 N112C-3xFLAG:CDK2,"co-IP with TMT proteomics, measured: NCL",,"concentration not given, P19338",relative to: wild type DMSO,relative co-enrichment,117%
Nc1ncc(-c2cc(-c3cnn(CC(F)(F)F)c3)ncc2F)nc1C(=O)NC1CNCC(F)C1 (centres unmarked),MARK4,KINOMEscan,,1 µM,relative to: DMSO control,remaining binding,54%
N=C(N)NCCC[C@@H]1NC(=O)[C@H](CCCNC(=N)N)NC(=O)[C@@H](CCCNC(=N)N)NC(=O)[C@@H](CCCNC(=N)N)NC(=O)[C@@H](C(c2ccccc2)c2ccccc2)NC(=O)[C@H](Cc2c[nH]c3ccccc23)NC(=O)[C@@H](C(c2ccccc2)c2ccccc2)NC1=O,Candida albicans,,ATCC 60193,"MIC, 12 h",,reduction of viable cells,> 65%
c1ccc(-c2n[nH]cc2-c2ccnc3ccccc23)nc1,KNS1 (Candida albicans),"kinase binding, MIB/MS competition",Candida albicans lysate,10 µM,relative to: DMSO,log2 fold change,-0.43
C=C(NC(=O)c1csc(-c2nc3c(cc2O)-c2nc(cs2)C(=O)NC(C(C)O)C(=O)NC(=C(C)OC)c2nc(cs2)C(=O)NC2c4nc(cs4)C(=O)NC(COC(=O)c4c5c6c(cccc6n4O)COC(=O)C(OC4CC(C)(O)C(N(C)C)C(C)O4)C2OC5)c2nc-3cs2)n1)C(N)=O (centres unmarked),Staphylococcus aureus,,ATCC 43300 MRSA,"2 x MIC, 1 h exposure",,post-antibiotic effect,1.09 ± 0.14 h
C=CC(=O)Nc1cccc(Cn2ncc3cnc(Nc4cnn(CCOC)c4)nc32)c1,GRK1 human,"binding, KINOMEscan",,100 nM,lower = stronger binding,percent of control,100%
Cn1ncc2cc(-c3cncc(Cl)c3N3CCC4(CCNC4=O)CC3)ccc21,LS174T,"gene expression, microarray, measured: ARRDC3 mRNA",,"concentration not given, 4 h",relative to: untreated cells,log2 fold change,1.41
